# Results from different studies.
# Each numbered part is a random draw from the data of one study; scales do not carry over between parts. Substitutions count along the parent as printed.

# Series 1 — target: CCNB3, cyclin fold, Cln2 fusion (human); technique: yeast growth competition, sequencing; medium: yeast; notes: weak parent motif; reference: not given; reading: higher = stronger binding
# Starting sequence: SAMHD1 docking peptide (human); ASKSRVQLFKDDP
Substitution,normalised enrichment score
ASKSRVRLFKDDP [Q7R],0.296
ASKSRSQLFKDDP [V6S],-0.591
ASKWRVQLFKDDP [S4W],0.0772
ASKSRVQWFKDDP [L8W],0.189
ASKSDVQLFKDDP [R5D],-0.129
ASKSCVQLFKDDP [R5C],0.226
ASKSQVQLFKDDP [R5Q],-0.048
ASKSRVDLFKDDP [Q7D],-0.274
ASKSRVALFKDDP [Q7A],-0.244
ASKLRVQLFKDDP [S4L],0.185
ASKSRDQLFKDDP [V6D],-0.383
ASKSRVQEFKDDP [L8E],-0.163
ASKSRVTLFKDDP [Q7T],0.0449
ASKSRVQLFKADP [D11A],0.168
ASKSRVQLVKDDP [F9V],0.117
ASKSRVQLMKDDP [F9M],0.0817
ASKSRVQLFKDAP [D12A],0.0434
ASKSRVQLFKDCP [D12C],0.0178
ASKSRVQLEKDDP [F9E],-0.182
ASKSRVQLFKDQP [D12Q],0.00124
AWKSRVQLFKDDP [S2W],0.156
ASKSRVQVFKDDP [L8V],0.0982

# Series 2 — technique: RNA Bind-n-Seq; form: RNA; medium: in vitro; concentration: not given; reference: input RNA pool; reading: higher = stronger binding
# Target: RING finger protein unkempt homolog, zinc fingers 1-6, GST-SBP tag (UNK, Homo sapiens, UniProt Q9C0B0, residues 30-357)
# Sequence of UniProt Q9C0B0 (30-357, looked up): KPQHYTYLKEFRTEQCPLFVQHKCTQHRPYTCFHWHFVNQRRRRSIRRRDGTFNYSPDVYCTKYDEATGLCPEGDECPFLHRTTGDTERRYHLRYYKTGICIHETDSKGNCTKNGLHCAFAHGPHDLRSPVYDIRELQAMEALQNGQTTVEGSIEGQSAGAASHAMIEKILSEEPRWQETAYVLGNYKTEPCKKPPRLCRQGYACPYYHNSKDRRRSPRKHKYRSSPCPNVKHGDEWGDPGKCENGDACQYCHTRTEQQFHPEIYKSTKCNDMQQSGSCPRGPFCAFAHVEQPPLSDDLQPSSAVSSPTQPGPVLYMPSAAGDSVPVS
# Notes: RNA with constant flanks, human-mouse chimeric sites, ends assumed
# All sequences stand within: GGGAGUUCUACAGUCCGACGAUC … CAACAGAGGAUUGAGCAUCA
Oligonucleotide,bound/input enrichment [ratio]
UCCCUGUUGCUGAAUAAAUGGCUUGUAAAGAAGUUUUUCCAAGCUGUAACCCAUGCUGUUAUUAUAGUUGCUGCAAAAUGUUCUUCCUGAUAUUGAUUUUAUUUGUUAACUGAAGGUCUC,0.57
UUUGUAUUUAUGCUAAGCACACGUGCUGGUGGUCUUGGCAUCAAUCUUGCAACUGCUGAUGUAGUAAUUUUAUAUGACUCAGAUUGGAAUCCGCAAGUUGAUCUUCAGGCUAUGGACCGU,0.269
CUAAUCCCCUUUACUGCUCCCCCACUUCUCAUGGUAAUAACAAAGUCUUAUAUCCCCAUAUUAGCUUUCACUCAGAUGGCUUAUGGAGCCGGUUUCCUAGCUUUCUUGGGAGGGAUCAGA,0.596
AAUUUCCUGUCAUACUUUUUAGACAUUCACAUCAGACUUACAGAGCACCUGGCCACAUUCUAGGUUUGUGUUAUUUCUCAGCUAUGGAUAUGAUCAAAGAGUGAAAAUGGCAGCCAGAUG,0.768
GUGACUGGUGUUAAGAUUUCCCCUCAGCAAAGAAGUGUAGCAGUGACCAUAAUUCCAUCUGUGGUGAGUGCCAGUCAGAUUGUGGAGCUGGUCCCAGACCUCAGUUUAGAUACUGGGACU,0.414
CUGUGACCACAAGAUCCUACCUGAGUGGCAGCUGAAGUUGACUCCCUCUCCUUGCCUGAACCCCCCCCCACUGCCCCUUGAGUCCACAGUGUCGGCUGAGAUGUUGCCUCUGCACGGUUC,1.1
UGACAAGGGCACUGCAGAGCCAUGCCUUUCCUUGACAUACAGAAAAAGCUGGGCAUCAGCCUGGACCGAUGGUUGACAAUCCAGAGUGCAGAACAGCCCUAUAAGAACGCCGCUCGGUGC,0.0829
GACAGUGAAGGCCCACUGUGUGAAUUGCUUUUUUUCUUCCUGACUGCAAUCUUCCAGGCAAUAGCUGAAGAAGAGGAGGAAGUAGCCAAAGAGCAGAUAACUGAUGCUGACACCAAAGAU,0.0669

# Series 3 — technique: protein binding microarray; form: double-stranded DNA, one strand shown; medium: in vitro; concentration: not given; reference: not given; reading: higher = stronger binding
# Target: Histone acetyltransferase KAT6A, winged helix 2, GST fusion (KAT6A, Homo sapiens, UniProt Q92794, residues 85-181)
# Notes: 8-mer, flanks averaged, mean of 2 arrays, mostly near background
# Residues (chain): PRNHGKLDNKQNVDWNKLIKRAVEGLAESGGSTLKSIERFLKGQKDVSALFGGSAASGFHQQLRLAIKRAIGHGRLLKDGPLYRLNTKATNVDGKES
Oligonucleotide,E-score
ACTAGACA,0.0221
GGCAACCC,0.0344
CAAAAATG,0.0237
CGGGTACG,0.0988
AATAACGG,0.109
CATAATTA,0.0794
AACCCAGA,0.0549
GATCCCGA,0.141
ACGAGTAT,-0.192
TCAGAGGA,0.0389
GGGCTTTA,-0.19
TGATAAAA,-0.0164
ACTGAATC,-0.0487
GTGAGTGA,-0.119
AGTGCTCC,-0.0498
GCGACGTA,-0.0059
ACCGTGAT,-0.0675
AGCGAGTC,-0.0723
AGCATCTG,0.0165
GGAGAATA,-0.00884
AAGGCTAA,0.0302
ACCAGTAT,-0.154
CTTGGTCA,0.0793
GGTGTCCA,0.0303
TAGTCTAA,-0.199

# Series 4 — technique: RNA Bind-n-Seq; form: RNA; medium: in vitro; concentration: 365 nM; reference: no-protein control; reading: higher = stronger binding
# Target: RNA binding protein fox-1 homolog 2, RRM domain, GST-SBP tag (RBFOX2, Homo sapiens, UniProt O43251-10, residues 100-194)
# Notes: natural RNA segment, single round, ends assumed
# All sequences stand within: GGGAGUUCUACAGUCCGACGAUC … UGGAAUUCUCGGGUGCCAA
# Target sequence (chain): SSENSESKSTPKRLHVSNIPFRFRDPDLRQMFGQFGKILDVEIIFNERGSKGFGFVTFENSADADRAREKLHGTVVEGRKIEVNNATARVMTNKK
Oligonucleotide,RBNS enrichment (R)
AGCCACGCCACUCUUACUCAGUUCAGUGGGUGUGCUUGCGUGGUAGGAUGUGGUGCAGCCCUCUCUACGCUCUUCUAUUUUUGGUAUAUUUCCUAUCUAACCUUCAAAUA,0.574
AGGGUCAGAAGUACCUCACAGUGGUUGUGGACAUGGAAGAGUUUUGUCAACACAACACUUUGUCCCCGCUCCGGGAGAUGAGUCAGAUGGUGGCUUGAGUUGUCACUUGG,0.317
AAUGUGAUUUGUUAAGAUUCUUAAAUUUGGGCCUCUUAGAAUAAUUUUGAAUGAGAUCUACCGACUCACUUGUGAGAAUAUUUUUCACAGAUUAUCUUUGGGCCUUUUCA,0.425
GACAGACAUCAAGUGCCAGAUGUUGUCUGAACUAAUCGAGCACUUCUCACCAAACUUCAUGUAUAAAUAAAAUACAUAUUUUUAAAACAAACCAAUAAAUGGCUUACAUG,0.635
GAGACUCGAGGGGCAUGGUGACAGUGCAGAGCCAGGGAACCAGAGUCCAGUAACUCCUGCCAACCAUGGACCCUCGACCUCCUGUGCUGUCCCUGUAUCCAGAGCUGGGC,0.291
UGCAGGACCGAAAGCCAGACUCAGCCCCUUGUCUCCCUGCACCUGUCCCACUUGACAUUUUUUAACUCAUCUUUCAUAAGGAUCCUCUGAAGCCCCCUGUGUGACCUGAG,0.581
GAGCAUCAGCAACGCCACAGACCCUGAACCCAGACCUUCCCCACCUCACCUCCUUCCCAUCCCGCCGAGCGUCCCAGACACUAACUCUUCCCAGAUGAUGACAAUGAAAU,0.736
CAGGAGUCCACUCAGAAGCAUGAGAACGGCCUGUAAUCCAGGCCGUGUCCUGCCACUAUGCCUGUAUUGCUGAGUGCCACCCAAGUCCUCUAUUUGGCUGUAGUCUGCUC,1.9
